Measured values from different studies.
Lines come from different studies, so protocols differ. ± gives the spread as reported.

SMILES | organism | test | test system | conditions | EC50
[H]/N=C(\N/C(=N/[H])Nc1ccc(Cl)cc1)NC(C)C | Saccharomyces cerevisiae | cell growth |  |  | 3.8 µM
Nc1nc(CC(O)c2ccc(Cl)cc2)c(Br)c(=O)[nH]1 (stereo not drawn) | parainfluenza-3 virus | virus-induced cytopathicity | Vero |  | > 100 µM
Cn1nc2c(=O)n(C3CC3)ccc2c1[C@](O)(c1cnc(C(F)(F)F)c(Cl)c1)C(F)(F)F | Saccharomyces cerevisiae | cell growth |  |  | 21 ± 11 µM
Nc1ncnc2c1ccn2[C@@]12C[C@H]1[C@H](CO)[C@@H](O)[C@H]2O | Enterovirus A71 | viral replication, visual | Vero 76, Tainan/4643/98 |  | > 100 µM
CCC(C)n1ncn(-c2ccc(N3CCN(c4ccc(OCC5COC(Cn6cncn6)(c6ccc(Cl)cc6Cl)O5)cc4)CC3)cc2)c1=O (stereo not drawn) | coxsackievirus B3 | viral replication, inhibitor |  | 72 h | 0.79 ± 0.06 µM
O=C1C(O)=C([C@H]2CC[C@H](c3ccc(Cl)cc3)CC2)C(=O)c2ccccc21 | Saccharomyces cerevisiae | cell growth |  |  | > 10 µM
C[C@H]1CN(c2n[nH]c3nc(N[C@H]4CC[C@H](NS(=O)(=O)CCC(F)(F)F)CC4)ncc23)CCO1 | Leishmania donovani |  | LdBOB promastigotes overexpressing CRK12 G572D |  | 0.0254 ± 0.0002 µM
Nc1ncnc2c1ncn2C[C@H](O)CO | parainfluenza-3 virus | virus-induced cytopathicity | Vero |  | > 250 µM
NC(=O)c1ncn([C@@H]2O[C@H](CO)[C@@H](O)[C@H]2O)n1 | Dengue virus | viral replication | BHK-21, DENV4 | 120 h | 91 µM
Cn1nc2c(=O)n(C3CC3)ncc2c1[C@](O)(c1cnc(C(F)(F)F)c(Cl)c1)C(F)(F)F | Saccharomyces cerevisiae | cell growth |  |  | 10 ± 6.6 µM
N#Cc1c(Nc2ccc(F)cc2)n[nH]c1NS(=O)(=O)c1ccc2ccccc2c1 | Usutu virus | viral replication | Vero 76, TC-508 |  | > 7.6 µM
COC(=O)N[C@H](C(=O)N1CCC[C@H]1c1ncc(-c2ccc(-c3ccc(-c4cnc([C@@H]5CCCN5C(=O)[C@@H](NC(=O)OC)C(C)C)[nH]4)cc3)cc2)[nH]1)C(C)C | hepatitis C virus | viral replication, transient replicon | genotype 1a NS5A Y93H |  | 0.029 µM
Cc1cc(C)c(/C=C/c2nc(N)[nH]c(=O)c2Br)c(C)c1 | parainfluenza-3 virus | virus-induced cytopathicity | Vero |  | > 20 µM
NC(=O)c1nc(F)c[nH]c1=O | Dengue virus | viral replication | BHK-21, DENV1 | 120 h | 18 µM
NC1CCN(S(=O)(=O)c2cc(C(=O)Nc3cc(F)c(F)c(F)c3)ccc2F)CC1 | Hepatitis B virus | viral replication, measured: intracellular HBV DNA | HepG2.2.15 | 6 days | 1.37 ± 0.08 µM
N#C[C@@]1(n2ccc(N)nc2=O)O[C@H](CO)[C@@H](O)[C@H]1O | dengue virus | viral replication, cell-based |  |  | > 10 µM
CCCc1nc(N)[nH]c(=O)c1Br | parainfluenza-3 virus | virus-induced cytopathicity | Vero |  | > 100 µM
Nc1ncnc2c1ccn2[C@H]1[C@H](O)[C@H](O)[C@]2(CO)C[C@H]12 | Enterovirus A71 | viral replication, visual | Vero 76, Tainan/4643/98 |  | > 100 µM
O=c1ccn([C@@H]2O[C@H](CO)[C@@H](O)[C@H]2O)c(=S)[nH]1 | Dengue virus | viral replication | BHK-21, DENV1 |  | 2.6 µM
CCN1CCN([C@@H](c2ccccc2)c2ccc(Cl)cc2)CC1 | dengue virus | viral replication, reporter virus particles | Huh-7.5.1 | 48 h | 11.6 µM
CNC(=O)[C@@]12C[C@@H]1[C@@H](n1cnc3c(NCc4cccc(Cl)c4)nc(C#Cc4ccc(F)c(F)c4)nc31)[C@H](O)[C@@H]2O | Enterovirus A71 | viral replication, visual | Vero 76, Tainan/4643/98 |  | > 32 µM
NC(=O)c1ncn([C@@H]2O[C@H](CO)[C@@H](O)[C@H]2O)n1 | Enterovirus B |  | HeLa, coxsackie virus B4 |  | 250 µM
NC(=O)c1ncn([C@@H]2O[C@H](CO)[C@@H](O)[C@H]2O)n1 | parainfluenza-3 virus | virus-induced cytopathicity | Vero |  | 85 µM
CNC(=O)[C@@]12C[C@@H]1[C@@H](n1cnc3c(NC)nc(C#Cc4ccc(Cl)s4)nc31)[C@H](O)[C@@H]2O | Enterovirus A71 | viral replication, visual cytopathic effect | Vero 76, Tainan/4643/98 |  | > 100 µM
N#C[C@@]1(c2ccc3c(N)ncnn23)O[C@H](CO)[C@@H](O)[C@H]1O | human coronavirus 229E | viral replication | MRC-5 | 72 h | 0.76 µM
CC(C)(O)Cc1nc(N)[nH]c(=O)c1Br | parainfluenza-3 virus | virus-induced cytopathicity | Vero |  | > 100 µM
COCC(=O)N1CCC[C@H](C(=O)NCc2nc(-c3ccccc3)cs2)C1 | Plasmodium falciparum |  | Dd2 β5 S27F resistant |  | 43 ± 12 µM

Repeated from above:
SMILES | organism | test | test system | conditions | EC50
N#Cc1c(Nc2ccc(F)cc2)n[nH]c1NS(=O)(=O)c1ccc2ccccc2c1 | Usutu virus | viral replication | Vero 76, TC-508 |  | > 7.6 µM
Cc1cc(C)c(/C=C/c2nc(N)[nH]c(=O)c2Br)c(C)c1 | parainfluenza-3 virus | virus-induced cytopathicity | Vero |  | > 20 µM
CNC(=O)[C@@]12C[C@@H]1[C@@H](n1cnc3c(NC)nc(C#Cc4ccc(Cl)s4)nc31)[C@H](O)[C@@H]2O | Enterovirus A71 | viral replication, visual cytopathic effect | Vero 76, Tainan/4643/98 |  | > 100 µM
